Earlier results as cited in several papers.
Each line is one published result; not all experiments were run side by side. ± gives the spread as reported.

SMILES | organism | read-out | method | cell line | strain | sample | EC50
NC(=O)c1ncn([C@@H]2O[C@H](CO)[C@@H](O)[C@H]2O)n1 | mumps virus | viral replication | MTT |  | EXCH-3 |  | 3400 nM
NC[C@H](NC(=O)c1ccc(-c2ccc(C(F)(F)F)cc2)[nH]1)c1nc(CO)cs1 | HIV-1 HXB2 | viral replication |  |  |  |  | < 200 nM
CCCCCCCSCC(P(=O)(O)O)P(=O)(O)O | Trypanosoma cruzi | growth |  |  | amastigotes |  | > 20000 nM
Nc1ncn(CCOCP(=O)(O)O)c(=O)n1 | herpes simplex virus 1 | viral replication |  | HEL | KOS TK- acyclovir-resistant |  | 68000 nM
CNC(=O)c1c(-c2ccc(F)cc2)oc2cc(N(CCO)S(C)(=O)=O)c(C3CC3)cc12 | hepatitis C virus | viral replication |  |  | genotype 1b replicon |  | 17 ± 5 nM
Cc1cc(Nc2ccc(S(F)(F)(F)(F)F)cc2)n2nc(C(C)(F)F)nc2n1 | Plasmodium falciparum | parasite growth |  |  | 3D7 |  | 4.3 to 7.8 nM
CC(=Nc1ccccc1N)c1c(C)cc(=O)n(O)c1O | hepatitis B virus | viral replication |  |  |  |  | 690 nM
CCCCCCCCNCC(O)(P(=O)(O)O)P(=O)(O)O | Trypanosoma cruzi | growth |  |  | amastigotes |  | > 10000 nM
COC(=O)C1C(=O)N(O)C(=O)c2ccccc21 (stereo not drawn) | HIV | viral replication |  | MT-4 |  |  | 13400 nM
NC(=O)NO | human cytomegalovirus | viral replication | virus titre reduction |  |  |  | < 500000 nM
N#C/N=C1\SCCN1Cc1ccc(Cl)nc1 | Folsomia candida | reproduction |  |  |  | LUFA soil, nominal | 1.5 mg/kg dry soil
CCCCCCCCC(F)(P(=O)(O)O)P(=O)(O)O | Trypanosoma cruzi | growth |  |  | amastigotes |  | > 10000 nM
Nc1nc2c(ncn2/C=C2/CC2(CO)CO)c(=O)[nH]1 | human cytomegalovirus | viral replication | plaque reduction | HFF | Towne |  | 420 ± 230 nM
CC(C)(C)NC(=O)N[C@H](C(=O)N1C[C@H]2[C@@H]([C@H]1C(=O)NC(CC1CCC1)C(=O)C(N)=O)C2(C)C)C(C)(C)C (stereo partly drawn) | hepatitis C virus | viral replication |  |  | genotype 1b replicon |  | 210 to 570 nM
CCCCCCCC[S+](C)CC(P(=O)(O)O)P(=O)(O)O.F[B-](F)(F)F (stereo not drawn) | Trypanosoma cruzi | growth |  |  | amastigotes |  | > 20000 nM

Repeated from above:
SMILES | organism | read-out | method | cell line | strain | sample | EC50
CNC(=O)c1c(-c2ccc(F)cc2)oc2cc(N(CCO)S(C)(=O)=O)c(C3CC3)cc12 | hepatitis C virus | viral replication |  |  | genotype 1b replicon |  | 17 ± 5 nM
CC(C)(C)NC(=O)N[C@H](C(=O)N1C[C@H]2[C@@H]([C@H]1C(=O)NC(CC1CCC1)C(=O)C(N)=O)C2(C)C)C(C)(C)C (stereo partly drawn) | hepatitis C virus | viral replication |  |  | genotype 1b replicon |  | 210 to 570 nM
